{"data": "Measurements gathered from unrelated publications", "note": "A part holds a random share of what one study measured. Changes are numbered by the printed parent chain."}
{"data": "Series 1", "target": "CCNF, cyclin fold, Cln2 fusion (human)", "technique": "yeast growth competition, sequencing", "sample": "yeast", "setting": "strong parent motif", "relative to": "not given", "direction": "higher = stronger binding", "parent": "SAMHD1 docking peptide (human); ASKSRVQLFKDDP"}
{"Substitution": "ASKGRVQLFKDDP [S4G]", "normalised enrichment score": 2.03}
{"Substitution": "ASKSRVQLFWDDP [K10W]", "normalised enrichment score": 0.792}
{"Substitution": "ASKSRVQLFTDDP [K10T]", "normalised enrichment score": 0.58}
{"Substitution": "ASKSRVQEFKDDP [L8E]", "normalised enrichment score": -0.0324}
{"Substitution": "ASKHRVQLFKDDP [S4H]", "normalised enrichment score": 1.29}
{"Substitution": "ASKSRVQLFKLDP [D11L]", "normalised enrichment score": 0.578}
{"Substitution": "ASKSRVQLFKSDP [D11S]", "normalised enrichment score": 1.47}
{"Substitution": "ASKSRVQPFKDDP [L8P]", "normalised enrichment score": 0.00941}
{"data": "Series 2", "target": "BATF3, bZIP domain (human)", "technique": "DHFR protein complementation", "sample": "yeast", "setting": "single substitutions, most at no-binding floor", "relative to": "wild-type JUN-FOS pair", "direction": "higher = stronger binding", "parent": "JUN, bZIP domain (human); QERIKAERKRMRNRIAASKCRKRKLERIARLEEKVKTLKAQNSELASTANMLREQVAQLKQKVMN; partner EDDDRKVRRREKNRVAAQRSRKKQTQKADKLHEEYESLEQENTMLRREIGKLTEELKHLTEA"}
{"Substitution": "L38C", "binding fitness [natural log]": 0.0687}
{"Substitution": "V35T", "binding fitness [natural log]": 0.165}
{"Substitution": "T37N", "binding fitness [natural log]": 0.289}
{"Substitution": "A49N", "binding fitness [natural log]": -0.228}
{"Substitution": "L52Q", "binding fitness [natural log]": -0.494}
{"Substitution": "Q55P", "binding fitness [natural log]": -1.04}
{"Substitution": "E44L", "binding fitness [natural log]": 0.127}
{"data": "Series 3", "target": "ABI1, truncated, D143A, DHFR fusion (Arabidopsis thaliana)", "technique": "DHFR PCA, deep sequencing", "sample": "yeast", "setting": "methotrexate growth selection, single substitutions", "with": "(+)-ABA 0.11 µM", "relative to": "wild-type fitted maximum", "direction": "higher = stronger binding", "parent": "PYL1, truncated, DHFR fusion (Arabidopsis thaliana); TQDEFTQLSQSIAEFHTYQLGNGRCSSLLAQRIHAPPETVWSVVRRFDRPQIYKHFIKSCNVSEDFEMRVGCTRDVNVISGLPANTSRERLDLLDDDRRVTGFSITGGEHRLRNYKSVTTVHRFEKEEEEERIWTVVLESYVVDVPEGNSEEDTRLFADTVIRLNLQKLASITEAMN; partner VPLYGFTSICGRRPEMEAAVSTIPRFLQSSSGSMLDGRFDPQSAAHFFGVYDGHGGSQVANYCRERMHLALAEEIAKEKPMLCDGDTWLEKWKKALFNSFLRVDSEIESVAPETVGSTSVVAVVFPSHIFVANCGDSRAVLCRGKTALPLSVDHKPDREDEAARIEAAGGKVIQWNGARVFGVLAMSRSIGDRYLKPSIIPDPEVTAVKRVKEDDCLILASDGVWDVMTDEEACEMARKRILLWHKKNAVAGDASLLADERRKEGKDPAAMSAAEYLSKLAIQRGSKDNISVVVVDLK"}
{"Substitution": "E89C", "relative binding score [%]": -1.81}
{"Substitution": "Y115W", "relative binding score [%]": -7.09}
{"Substitution": "R123Q", "relative binding score [%]": 70.7}
{"Substitution": "L93H", "relative binding score [%]": 5.94}
{"Substitution": "V142R", "relative binding score [%]": -3.06}
{"Substitution": "E38F", "relative binding score [%]": 3.68}
{"Substitution": "S171K", "relative binding score [%]": 50.6}
{"Substitution": "I33M", "relative binding score [%]": 5.83}
{"Substitution": "Y53F", "relative binding score [%]": 4.44}
{"Substitution": "K54S", "relative binding score [%]": -0.492}
{"Substitution": "T17V", "relative binding score [%]": -0.398}
{"data": "Other studies, line by line"}
{"Molecule": "PhoQ, residues 284 288 289 292 302 303 NLALSC", "target": "PhoP, residues 12 14 15 18 19 LYFRQ (Escherichia coli, UniProt P23836)", "test": "Sort-seq, refers to: YFP reporter", "test system": "E. coli", "setting": "PhoQ-PhoP variant library, with: 10 µM Mg2+", "scale": "relative to: high Mg2+ state, higher = stronger signaling", "measurement": "fold induction", "result": 0.842}
